Published values pooled from the literature.
A part holds a random share of what one study measured. Changes are numbered by the printed parent chain.

Series 1
Target: CCNB1, cyclin fold, Cln2 fusion (human)
Technique: yeast growth competition, sequencing
Matrix: yeast
Notes: weak parent motif
Relative to: not given
Direction: higher = stronger binding
Starting sequence: CDKN1B docking peptide (human); PSACRNLFGPVDH
| Variant | normalised enrichment score |
| --- | --- |
| A3D | -0.0549 |
| V11M | 0.382 |
| N6A | 0.82 |
| H13M | -0.023 |
| P10T | 0.756 |
| S2E | 0.281 |
| S2W | 0.153 |
| P1G | 0.258 |
| V11H | 1.36 |
| A3Q | 0.452 |
| S2C | 0.347 |
| F8R | 0.666 |
| H13N | 0.438 |
| D12N | 0.997 |
| R5N | 0.422 |
| H13Q | 0.316 |
| D12Q | 0.574 |
| A3L | 1.31 |
| G9C | 0.42 |
| F8A | -0.0833 |
| C4W | 0.921 |
| P10D | 0.925 |
| C4A | 0.864 |
| G9A | 0.399 |
| C4Y | 0.618 |

Series 2
Target: RING finger protein unkempt homolog, zinc fingers 1-6, GST-SBP tag (UNK, Homo sapiens, UniProt Q9C0B0, residues 30-357)
Technique: RNA Bind-n-Seq
Form: RNA
Matrix: in vitro
Concentration: not given
Notes: RNA with constant flanks, human and mouse sites, ends assumed
Relative to: input RNA pool
Direction: higher = stronger binding
Constant ends, left off below: GGGAGUUCUACAGUCCGACGAUC … CAACAGAGGAUUGAGCAUCA
Construct (chain): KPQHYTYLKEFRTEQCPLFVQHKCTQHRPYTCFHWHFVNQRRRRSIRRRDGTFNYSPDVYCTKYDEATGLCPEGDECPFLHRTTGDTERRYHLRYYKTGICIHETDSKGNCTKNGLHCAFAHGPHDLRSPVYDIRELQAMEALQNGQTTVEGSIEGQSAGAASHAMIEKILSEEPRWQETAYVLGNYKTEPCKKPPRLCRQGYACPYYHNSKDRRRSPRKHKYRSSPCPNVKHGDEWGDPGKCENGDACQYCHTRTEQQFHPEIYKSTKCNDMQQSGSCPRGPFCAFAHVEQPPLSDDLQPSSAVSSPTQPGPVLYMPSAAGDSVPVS
| Sequence | bound/input enrichment [ratio] |
| --- | --- |
| GAGCAACGGAGAGCCCCACUUUCUACCAGAUGCAAUGUUUGGGCAACCAGGAGCCCUAGGUAGCACUCCAUUUCUUGGUCAGCAUGGUUUUAAUUUUUUUCCCAGUGGGAUUGACUUCUC | 0.52 |
| CUCUUCAAGAGCAUCUGGAACAACAGAUGGCUGCGCACCAUCUCUGUGAUCCUGUUCCUCAACAAGCAAGAUCUGCUCGCUGAGAAAGUCCUUGCUGGGAAAUCGAAGAUUGAGGACUAC | 0.0608 |
| GGUCCUAAAGACAAGAUUCUUGAUGGGACUGAUACCGACAGCAAUAGGAUCUUUUGAGUAUUCAACUCGGAGUAACAGAAUUUGUCAUCAACGGCAUGAAUGGCUCAGCCGAGGAAAUAG | 0.281 |
| UACCUGCUGCUGCAGACCUACGUACUCCGCCUGGAAGCCAUCAUGAAUGGCAUCUUGCUCUUCUUCUGUGGCUCAGAGCUUUUACUUGAGGUGCUCACCUUGGCUGCUUUCUCCAGUAUG | 0.247 |
| CACAGGGCGACGGGAAGCCUGCAGCAGGCCCUCGUGUGCUUCGAGAAGAGGCUGGUGGUGGCCCAUGAGCUCGGGGAGGCCUCCAAUAAAGCUCAGGCCUACGGAGAGCUGGGAAGCCUC | 0.0927 |
| GCGGGCGCAGUGUUAUCCACACAGUGAAAUAAGACUGUCAGAAAAUUUCAGCCUCGUGGAUAGUAAUUUUAAUGCCUGUACCACCUGUUUCUGGACAGUUCUCUUGGAGGAGCGAAGAAU | 0.507 |
| AAAGGGUAUACCAAUUCUGAAACUAAAGUACAAACAGCAAAGCAUUCUCAUUUUCGGUCACAUUCCAGAUCUCGAAGUUAUCGUCAUAAAAACAGUUGGUGAACAGCAACAGAAAGAGCA | 0.271 |
| AAGAGUCAAGGUGGGGAGCCAACAUACAAUGUGGCUGUCGGCAGAGCUGGUAGAGUCUUGGUCUUUGUAAUGGGAAAAGAAGGGGUCCAUGGAGGCGGAUUGAAUAAGAAGGCAUACUCA | 0.417 |
| AUGGCAACAUCAGAGGCACUUAAAAUUUCAAGAGAGGUAGAUCCAGAUGGUCGCAGAACCCUAGCUGUAAUCACUAAACUUGAUCUCAUGGAUGCGGGUACUGAUGCCAUGGAUGUAUUG | 0.217 |
| CCUGAAACUUCCUGCGGUAGCUCCCUCCCUUCAGAGUUACAUCAUUAUCCUGACUCUGUGUAGGUAAAUUUCCGUGAAAUUUUUGUACAAAAAAAAAGGUAAUGAAAGAACGUUGCAAAG | 0.424 |
| CGCUUCAGUGUCCUGGAAGUGCUUAAGUACCUGUUAAUGAGACGCUGGGAUUGAAUGCUGAGUUCCGGCCAUGCCUGGAGUGGCUGUACAGAGACCACAAAGAGUUCAGGUCUGUGUCCA | 0.135 |

Series 3
Target: TAR DNA-binding protein 43, full length, His tag (TARDBP, Homo sapiens, UniProt Q13148, residues 1-414)
Technique: RNA Bind-n-Seq
Form: RNA
Matrix: in vitro
Concentration: 20 nM
Notes: 6-mer, flanks averaged, single round
Added: 150 mM KCl
Relative to: input library
Direction: higher = stronger binding
| Sequence | 6-mer enrichment (R) |
| --- | --- |
| CCCGGA | 0.787 |
| UGAAGU | 0.846 |
| GCCCAA | 0.733 |
| GUUGUU | 0.793 |
| AGGCCG | 1.44 |
| AUCACC | 0.599 |
| CGUCAA | 0.664 |
| GUGCUG | 1.33 |
| GCGCUC | 0.791 |
| GGAUCA | 0.93 |
| GGAAUC | 0.878 |
| CUGAAU | 0.678 |
| CCGAAG | 0.893 |
| AGCAGU | 0.843 |
| UUAAAU | 0.627 |
| UAUAGG | 0.937 |
| GGAAGA | 1.74 |
| UGAGAA | 0.904 |

Series 4
Target: RNA binding protein fox-1 homolog 2, RRM domain, GST-SBP tag (RBFOX2, Homo sapiens, UniProt O43251-10, residues 100-194)
Technique: RNA Bind-n-Seq
Form: RNA
Matrix: in vitro
Concentration: 365 nM
Notes: natural RNA segment, single round, ends assumed
Relative to: no-protein control
Direction: higher = stronger binding
Constant ends, left off below: GGGAGUUCUACAGUCCGACGAUC … UGGAAUUCUCGGGUGCCAA
Residues (chain): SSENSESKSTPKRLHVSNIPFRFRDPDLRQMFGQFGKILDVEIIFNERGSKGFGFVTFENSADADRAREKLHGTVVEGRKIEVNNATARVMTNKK
| Sequence | RBNS enrichment (R) |
| --- | --- |
| AGAAGCCCUUUGCCAUCGCCAAGGAGUAGGGCACAGGGACAUCUUUCUUUGAGUGACCGUCUGUGCAGGCCCUGUAGUCCGCCACAGGGCUCUGAGCUGCACUGGCCCCG | 0.193 |
| CCUGGGAGCGUCUGGAGCUCACAGUGAUCAGUGACCACAUCAUUCUCUCUGAGCAGAGGAGCAGGAAUCCCUCAAGCAGCAGCCUGGUCUUGGCUGGUGGGCAGAUGCAA | 0.432 |
| ACACCAGCUACCAAUUUUAGAAUAUUAUUUCUUGGUUUCUUUAUGAAAAAUGGGUGCUAGUGGUAAUUGCUUUGUGGCUUAGUAAACUACUCUGUGGAUGAUUUCCAAAC | 0.712 |
| GGAGCAAUCCAAGCCACAUAUCUUCUACAUCAAAUUUUUCCAUUUUGGUUAUUUUCAUAAUCUGGUAUUGCAUUUUGCCUUCCCUGUUCAUACCUCAAAUUGAUUCAUAC | 5.06 |
| GCAAACUUUUAUGGCCUGUCCCAUGUGCAUCUUAUUUAAAAUUUCCCCCAGAAAUCACUCUCCUGUUUACUAUUCCAGAGCUCUAGUUGUAGGCAGCGUGUGGCGUCUCA | 2.31 |
| AGAUCAGCUCUAAGGUGCUGACAGCGACCCUGCUCAGAGCACCAGGUUUCAGGGCACUGAAGCCUUCCCGAAGUGCGUACACAUUCUGGGGAGUGUGCUCCAGCUGCCCC | 0.173 |
| GAAGAAAAUUAAUGUUUUAAUGUAAAUGUUUUUAAAACCAAGAUCACCAUAGAGUUCACACAAAAUUUUAGGCAGUGUUUCAAGAAGCACUCUUAUGUGUUGUUCUUUCA | 0.92 |
| AUGAGAUAUCAUGUUUUAGCAUUCCAUUUUACUGACUAGGGUAGAAGAACACUUUUCUUGGCUACAUUUGGAGGAUACCCAGGGAGUCUUGGGUGUUCCUUAUCUGGGGA | 0.28 |
| CCGAUCUAGGAUUACUCUGGACCUCAUUCGGGUGUUAUGAGUAUCCCACGAAGGCCAGACGCUGAUUUUAUUUUCUCAUUUCCACAGAUUGACAAGGAUAAGUCAGUUGU | 0.273 |
| UUUUGUCUGUACUGACUCUAUCUGCCACACAGAAUGUAUGUAUGUAAUAUUCAGUAAUAAAUGUCAUCAGGUGAUGACUGGAUGAGCUGCUGAAGACAUUCGUAUUAUGU | 0.411 |
| GUGGUUUUGAAGUUUGUACUUUCUCUGUGGGUGCCAGUUAAAUAUUGGAGAGCAAGGAAUGUGGACUUGUAUGGCUUUGAACCAAGAGAGGGUUAUGAGCCUACUGGAUU | 0.865 |
| AGUAUAGGUCUACUGAAAAACCAUUGUAAAUGGACGUUACAGGUAUGCUGUAUUUUUGAAGGUAUUUUGUUGUAUUAAGUUUGAUGAAGCUAAAAUUAGGGAACUCUGAA | 0.915 |

Series 5
Target: ABI1, truncated, D143A, DHFR fusion (Arabidopsis thaliana)
Technique: DHFR PCA, deep sequencing
Matrix: yeast
Notes: methotrexate growth selection, single substitutions
Added: (+)-ABA 0.39 µM
Relative to: wild-type fitted maximum
Direction: higher = stronger binding
Starting sequence: PYL1, truncated, DHFR fusion (Arabidopsis thaliana); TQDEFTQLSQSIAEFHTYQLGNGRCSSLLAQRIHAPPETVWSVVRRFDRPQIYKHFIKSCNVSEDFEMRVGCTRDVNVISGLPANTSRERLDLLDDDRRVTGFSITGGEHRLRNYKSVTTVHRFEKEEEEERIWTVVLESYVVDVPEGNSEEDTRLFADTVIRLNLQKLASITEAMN; partner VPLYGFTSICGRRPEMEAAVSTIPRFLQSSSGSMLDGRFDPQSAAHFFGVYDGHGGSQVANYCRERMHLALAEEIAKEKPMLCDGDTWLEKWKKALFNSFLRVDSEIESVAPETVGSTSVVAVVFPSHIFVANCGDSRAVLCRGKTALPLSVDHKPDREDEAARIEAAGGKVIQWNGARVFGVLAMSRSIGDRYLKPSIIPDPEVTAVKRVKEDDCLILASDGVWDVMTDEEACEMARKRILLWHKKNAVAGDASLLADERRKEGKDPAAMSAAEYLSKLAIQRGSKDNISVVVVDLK
| Variant | relative binding score |
| --- | --- |
| M68Y | 1.86% |
| V142N | -19.2% |
| S11F | 28.4% |
| T17S | 23.6% |
| V62E | -10.7% |
| M176Q | 22.1% |
| Q31Y | -3.46% |
| E38T | 0.809% |
| F15S | -2.5% |
| A13D | 38.7% |
| P146D | 0.677% |
| K58D | 5.58% |
| L82G | 42.8% |
| Y115D | -7.43% |
| G81T | 33.7% |

For quick reference, copied from above (series 3):
| Sequence | 6-mer enrichment (R) |
| --- | --- |
| CCGAAG | 0.893 |
| AUCACC | 0.599 |
| GUUGUU | 0.793 |
| GGAAGA | 1.74 |
| UGAGAA | 0.904 |
| UUAAAU | 0.627 |
| GGAAUC | 0.878 |
| CUGAAU | 0.678 |
| GCCCAA | 0.733 |
